Experimental data of several laboratories.
A part holds a random share of what one study measured. Substitutions count along the parent as printed.

Sample 1
Target: Sal-like protein 4, full length isoform A (SALL4, Homo sapiens, UniProt Q9UJQ4, residues 1-1053)
Sequence of UniProt Q9UJQ4 (whole entry, looked up): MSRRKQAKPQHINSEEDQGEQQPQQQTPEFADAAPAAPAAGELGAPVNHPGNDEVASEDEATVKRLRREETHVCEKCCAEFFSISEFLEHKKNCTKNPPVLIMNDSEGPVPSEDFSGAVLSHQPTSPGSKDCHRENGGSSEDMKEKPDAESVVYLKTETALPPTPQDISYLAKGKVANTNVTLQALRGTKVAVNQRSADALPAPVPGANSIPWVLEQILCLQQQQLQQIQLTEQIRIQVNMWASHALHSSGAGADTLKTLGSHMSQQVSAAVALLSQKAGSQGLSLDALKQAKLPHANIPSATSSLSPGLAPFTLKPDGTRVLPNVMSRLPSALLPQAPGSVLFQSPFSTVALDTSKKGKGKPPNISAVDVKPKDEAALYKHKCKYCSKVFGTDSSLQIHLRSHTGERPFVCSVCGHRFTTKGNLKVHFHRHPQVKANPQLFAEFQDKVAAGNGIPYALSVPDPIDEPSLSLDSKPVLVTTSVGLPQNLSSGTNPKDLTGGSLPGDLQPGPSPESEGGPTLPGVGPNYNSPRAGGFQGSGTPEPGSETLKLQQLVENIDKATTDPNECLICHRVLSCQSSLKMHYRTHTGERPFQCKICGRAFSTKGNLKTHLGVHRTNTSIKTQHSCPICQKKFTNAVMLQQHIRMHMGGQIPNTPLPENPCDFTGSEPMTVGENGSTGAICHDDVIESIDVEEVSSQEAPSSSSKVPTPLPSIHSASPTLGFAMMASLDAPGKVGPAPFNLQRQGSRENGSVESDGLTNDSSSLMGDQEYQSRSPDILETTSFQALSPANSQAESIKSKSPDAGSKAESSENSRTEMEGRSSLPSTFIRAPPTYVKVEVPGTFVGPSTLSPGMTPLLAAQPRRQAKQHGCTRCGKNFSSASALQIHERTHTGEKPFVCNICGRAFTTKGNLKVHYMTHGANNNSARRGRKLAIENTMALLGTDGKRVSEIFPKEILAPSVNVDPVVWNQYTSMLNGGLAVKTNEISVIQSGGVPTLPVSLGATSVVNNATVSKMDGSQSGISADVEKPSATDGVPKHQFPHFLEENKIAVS
Method: universal PBM
Form: double-stranded DNA, one strand shown
Medium: in vitro
Tested at: 600 nM
Notes: 8-mer, flanks averaged, mean of replicates
Direction: higher = stronger binding
| Strand | E-score |
| --- | --- |
| CAGACTCA | -0.11 |
| GGAGACAA | 0.00711 |
| ATATAGTC | 0.336 |
| CAAATCAG | 0.235 |
| TCTCACAA | 0.161 |
| AATCTGCA | 0.0793 |
| AGTGGGAA | 0.00813 |
| GAGGCGCA | -0.233 |
| AACCCCGA | -0.177 |
| AAAGGGAT | 0.186 |
| ACCCGCCA | -0.129 |
| TGAGCTAA | 0.114 |
| ACTGCGAA | -0.0209 |
| CGCAGTTA | 0.0878 |
| CAAGGAAC | -0.144 |
| CCGGCGGC | -0.333 |
| AAGTTGAG | -0.00954 |
| GACCCGCC | -0.33 |
| CAACGTTC | 0.0293 |
| AATGATCG | -0.0435 |
| ACCACTAA | 0.108 |
| GAATTGGA | 0.105 |
| ACGCTTCG | -0.159 |
| CCACGCGA | -0.158 |
| TCTCGTAA | 0.1 |

Sample 2
Target: Interferon regulatory factor 5, full length, phosphomimetic (IRF5, Homo sapiens, UniProt Q13568-2, residues 1-514, K96S/S451D/S453D/S456D/S462D)
Method: protein-binding microarray
Form: double-stranded DNA, one strand shown
Medium: in vitro
Tested at: 250 nM
Notes: 60-bp whole probe
Together with: salmon DNA 0.4 mg/ml
Reference: random background probes
Direction: higher = stronger binding
All sequences stand within: GCCTAGCAC … GTCTTGATTCGCTTGACGCTGCTG
| Strand | log fluorescence [z-score] |
| --- | --- |
| TTAGGTTTCGTTTTCGGTTAGTGCTAG | 10.8 |
| GACGGACTGTACTTTCGGGACGTGCTA | 5.64 |
| GACGGTATCCTTTTCCCGACGTGCTAG | 0.777 |
| GACGGTTTCGACTGTCGGGACGTGCTA | 5.87 |
| GACGGTCTCCTTTTCCTGAAGTGCTAG | 0.146 |
| TTAGGTATCGGTCTCGGTTAGTGCTAG | 6.96 |
| GGCCCTTTGCTTTCCTGATGGTGCTAG | -0.17 |
| TTTAGATTTTTTTTCCTAATGTGCTAG | 0.871 |
| TTAGGATTCCTTCTCCTTTAGTGCTAG | 0.164 |
| TCAATGATTTTTTTCATACTGTGCTAG | 0.692 |
| GGTCTTTCTGTTTTCTCCATGTGCTAG | 5.48 |
| CATTTTCTCTGTTCTAGAAGGTGCTAG | 1.77 |
| GACGGACTGGGGTTTCGGGATGTGCTA | 1.77 |
| TTAGGTTTTCTTCTCCTTTAGTGCTAG | 0.946 |
| TCACTTCACCTCTCTGTCACTGTGCTA | 0.622 |
| TTAGATCTCTGTATCGATTAGTGCTAG | 4.12 |
| TTAGATCTCAGACTGGATTGGTGCTAG | -0.251 |
| TCACTTTTGCTAATTTTACTGTGCTAG | 1.68 |
| TTAGATTTCGGTTTTCGATTAGTGCTA | 9.12 |
| GAAGGACTGGACTATCGGGACGTGCTA | 0.936 |
| TTTCATTGCTGCCCTCAGAAAGTGCTA | 7.02 |
| CACTAGTTTCTTTTCTTTTCGTGCTAG | 2.83 |
| GACGGGCTGGGGTATCGGGACGTGCTA | -0.0925 |
| GACGGTTTCGTACTGCTGACGTGCTAG | 3.08 |
| TACGGTTCCGGTTTCGGGACGTGCTAG | 5.09 |

Sample 3
Target: CCND1, cyclin fold, Cln2 fusion (human)
Method: yeast growth competition, sequencing
Medium: yeast
Notes: weak parent motif
Reference: not given
Direction: higher = stronger binding
Parent: E2F1 docking peptide (human); PPVKRRLDLETDH
| Substitution | normalised enrichment score |
| --- | --- |
| E10C | 0.242 |
| R5Q | 0.315 |
| P2L | -0.0856 |
| R6G | 0.452 |
| T11Q | -0.0832 |
| E10M | -0.0801 |
| D12S | 0.36 |
| E10A | 0.729 |
| L7E | 0.00121 |
| E10H | 0.763 |
| E10T | 0.217 |
| R5M | 0.671 |
| H13E | 0.0243 |
| D12W | 6.77e-05 |
| L7S | -0.13 |
| D8S | 1.08 |
| P2I | 0.00348 |
| L7G | 0.186 |

Sample 4
Target: Fragile X messenger ribonucleoprotein 1, C-terminal low-complexity region (Fmr1, Mus musculus, UniProt P35922)
Method: RNA Bind-n-Seq
Form: RNA
Medium: in vitro
Tested at: 200 nM
Notes: whole 134-nt RNA, ends assumed
Together with: 150 mM LiCl
Reference: input library
Direction: higher = stronger binding
Library: 7-deaza-guanosine replaces G
All sequences stand within: GGGAGUUCUACAGUCCGACGAUC … UGGAAUUCUCGGGUGUCAAGG
| Strand | log2 enrichment |
| --- | --- |
| GUCCUGUGCUACACAUCGUAUGUACCGAAUCGGGGAGGGGAAAAAGGGGUUUUUGGGGAAAGUAUUAUGUUACGCCGUUCGGAUCUGCAC | 0.19 |
| AGUCCUGUGCUACACAUCGUAUGUACCGAAUCGGGUUUUUGGGUUUUUUUGGGUGGGAAAGUAUUAUGUUACGCCGUUCGGAUCUGCACU | -1.31 |
| GUCCUGUGCUACACAUCGUAUGUACCGAAUCAAAUUUAAACCCCCAAAUUUUUUUAAAAAAGUAUUAUGUUACGCCGUUCGGAUCUGCAC | 0.542 |
| AAGUCCUGUGCUACACAUCGUAUGUACCGAAUCGGAAAAAGGAAAGGAAAAAAAGGAAAGUAUUAUGUUACGCCGUUCGGAUCUGCACUU | -1.05 |
| UCCUGUGCUACACAUCGUAUGUACCGAAUCGGGGAAAGGGGUUUUUGGGGUUUUUGGGGAAAGUAUUAUGUUACGCCGUUCGGAUCUGCA | -0.85 |
| UCCUCAAGUCCUGUGCUACACAUCGUAUGUACCGAAUCGGCGGGCGGCGGGGAAAGUAUUAUGUUACGCCGUUCGGAUCUGCACUUCCAG | 1.12 |
| GCAGGAAGUAAAAACAAAUGGAAAUGCUUCGGAUAGUGGCAGGGGUGGGGGUUGCUAAGGAAAGGGUGGGAAGGGAGUGGGUAAAGAGUU | 1.73 |
| CACAGACAACACGCUCCCACACAGACACAGAGGGAAGGGGUUGGGAUGGGGACAGGGUGCACAGCAGGGCGGGGUAGGACCCCAGCCCCU | 0.571 |
| AAGUCCUGUGCUACACAUCGUAUGUACCGAAUCGGAGGUUUUUUUGGAAAAAAAGGAAAGUAUUAUGUUACGCCGUUCGGAUCUGCACUU | -2.23 |
| CACAGACAACACGCACGCACACAGACACAGAGGGAAGGGGUUGGGAUGGGGACAGGGUGCACAGCAGGGCGGGGUAGGACCCCAGCCCCU | 0.929 |
| GUCCUGUGCUACACAUCGUAUGUACCGAAUCGGGCCCCCGGCCCCCGGGGCCCCCGGGGAAAGUAUUAUGUUACGCCGUUCGGAUCUGCA | -2.66 |

Sample 5
Target: ABI1, truncated, D143A, DHFR fusion (Arabidopsis thaliana)
Method: DHFR PCA, deep sequencing
Medium: yeast
Notes: methotrexate growth selection, single substitutions
Together with: (+)-ABA 0 µM
Reference: wild-type fitted maximum
Direction: higher = stronger binding
Parent: PYL1, truncated, DHFR fusion (Arabidopsis thaliana); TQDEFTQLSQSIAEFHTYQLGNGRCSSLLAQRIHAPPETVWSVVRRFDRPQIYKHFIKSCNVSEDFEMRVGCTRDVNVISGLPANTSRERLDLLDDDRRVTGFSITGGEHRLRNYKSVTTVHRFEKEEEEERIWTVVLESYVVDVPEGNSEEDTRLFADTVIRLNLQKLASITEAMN
| Substitution | relative binding score [%] |
| --- | --- |
| S87T | 38.4 |
| N22S | 36.9 |
| G21F | -2.18 |
| C60F | -0.918 |
| E152A | 13.3 |
| S80C | 32.6 |
| R46A | 20.2 |
| H16I | 3.74 |
| Q31W | 1.31 |
| S87C | 35.8 |
| D92V | -2.68 |

For quick reference, copied from above (sample 5):
| Substitution | relative binding score [%] |
| --- | --- |
| S87T | 38.4 |
| Q31W | 1.31 |
| G21F | -2.18 |
| D92V | -2.68 |
| N22S | 36.9 |
| C60F | -0.918 |
| S80C | 32.6 |
| H16I | 3.74 |
| R46A | 20.2 |
| S87C | 35.8 |
| E152A | 13.3 |
